{"data": "Measured values gathered from unrelated publications", "note": "Compare with care: the assays were run in different laboratories. Several values in a cell are separate wells, animals, samples, runs or records. ± gives the spread as reported.", "UniProt P22303, sequence (whole entry, looked up)": "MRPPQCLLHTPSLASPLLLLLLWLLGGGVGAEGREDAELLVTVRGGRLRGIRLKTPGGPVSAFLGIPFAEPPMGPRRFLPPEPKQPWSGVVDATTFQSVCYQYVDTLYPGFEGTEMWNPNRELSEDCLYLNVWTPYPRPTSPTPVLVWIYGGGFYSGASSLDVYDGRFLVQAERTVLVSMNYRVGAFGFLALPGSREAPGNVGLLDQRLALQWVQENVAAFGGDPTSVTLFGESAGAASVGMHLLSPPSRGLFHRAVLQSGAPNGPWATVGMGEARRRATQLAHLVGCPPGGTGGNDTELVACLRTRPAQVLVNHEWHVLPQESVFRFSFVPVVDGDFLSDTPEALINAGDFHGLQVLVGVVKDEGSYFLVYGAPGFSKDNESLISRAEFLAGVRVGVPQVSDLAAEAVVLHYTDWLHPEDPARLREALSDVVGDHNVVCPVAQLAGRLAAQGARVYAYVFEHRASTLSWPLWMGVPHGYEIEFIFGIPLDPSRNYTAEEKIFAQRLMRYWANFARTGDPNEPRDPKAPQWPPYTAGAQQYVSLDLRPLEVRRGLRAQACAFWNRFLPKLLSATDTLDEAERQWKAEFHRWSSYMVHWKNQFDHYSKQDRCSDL", "UniProt Q9UNU6, sequence (whole entry, unmodified, looked up)": "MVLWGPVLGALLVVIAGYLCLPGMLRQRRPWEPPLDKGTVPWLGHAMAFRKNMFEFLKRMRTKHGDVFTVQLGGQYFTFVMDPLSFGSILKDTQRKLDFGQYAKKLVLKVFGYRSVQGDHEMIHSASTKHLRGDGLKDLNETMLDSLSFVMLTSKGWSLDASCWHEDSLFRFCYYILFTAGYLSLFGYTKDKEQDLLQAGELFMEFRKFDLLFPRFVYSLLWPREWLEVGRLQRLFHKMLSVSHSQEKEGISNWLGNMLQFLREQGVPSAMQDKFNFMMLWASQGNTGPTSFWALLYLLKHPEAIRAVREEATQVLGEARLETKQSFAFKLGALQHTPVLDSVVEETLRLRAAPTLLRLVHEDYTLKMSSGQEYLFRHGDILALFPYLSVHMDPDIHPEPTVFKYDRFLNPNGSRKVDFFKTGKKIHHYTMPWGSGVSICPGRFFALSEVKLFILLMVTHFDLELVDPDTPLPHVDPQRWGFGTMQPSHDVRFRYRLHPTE", "UniProt Q9C0K7, sequence (whole entry, looked up)": "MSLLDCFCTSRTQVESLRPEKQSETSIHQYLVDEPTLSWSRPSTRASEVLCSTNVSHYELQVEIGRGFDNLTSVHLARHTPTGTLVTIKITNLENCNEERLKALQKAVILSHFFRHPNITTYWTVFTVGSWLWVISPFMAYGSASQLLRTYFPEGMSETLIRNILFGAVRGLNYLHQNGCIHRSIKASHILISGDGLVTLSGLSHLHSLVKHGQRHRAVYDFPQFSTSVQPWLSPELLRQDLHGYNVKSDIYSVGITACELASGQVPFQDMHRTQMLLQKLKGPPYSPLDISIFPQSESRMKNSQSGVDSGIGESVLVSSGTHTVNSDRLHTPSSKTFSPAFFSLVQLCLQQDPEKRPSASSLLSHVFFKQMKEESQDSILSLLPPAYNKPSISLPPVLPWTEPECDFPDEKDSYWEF", "UniProt Q86YV6, sequence (whole entry, looked up)": "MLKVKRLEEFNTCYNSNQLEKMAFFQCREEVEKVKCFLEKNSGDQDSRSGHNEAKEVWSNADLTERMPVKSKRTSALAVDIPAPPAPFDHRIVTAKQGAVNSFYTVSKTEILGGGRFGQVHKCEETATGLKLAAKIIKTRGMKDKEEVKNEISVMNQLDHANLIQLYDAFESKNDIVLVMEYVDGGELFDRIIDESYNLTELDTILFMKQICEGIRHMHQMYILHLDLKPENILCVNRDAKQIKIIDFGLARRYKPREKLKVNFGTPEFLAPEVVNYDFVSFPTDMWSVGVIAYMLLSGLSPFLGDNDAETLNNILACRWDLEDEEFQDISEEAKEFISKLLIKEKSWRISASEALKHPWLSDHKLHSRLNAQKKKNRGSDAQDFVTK", "UniProt P10721, sequence (whole entry, unmodified, looked up)": "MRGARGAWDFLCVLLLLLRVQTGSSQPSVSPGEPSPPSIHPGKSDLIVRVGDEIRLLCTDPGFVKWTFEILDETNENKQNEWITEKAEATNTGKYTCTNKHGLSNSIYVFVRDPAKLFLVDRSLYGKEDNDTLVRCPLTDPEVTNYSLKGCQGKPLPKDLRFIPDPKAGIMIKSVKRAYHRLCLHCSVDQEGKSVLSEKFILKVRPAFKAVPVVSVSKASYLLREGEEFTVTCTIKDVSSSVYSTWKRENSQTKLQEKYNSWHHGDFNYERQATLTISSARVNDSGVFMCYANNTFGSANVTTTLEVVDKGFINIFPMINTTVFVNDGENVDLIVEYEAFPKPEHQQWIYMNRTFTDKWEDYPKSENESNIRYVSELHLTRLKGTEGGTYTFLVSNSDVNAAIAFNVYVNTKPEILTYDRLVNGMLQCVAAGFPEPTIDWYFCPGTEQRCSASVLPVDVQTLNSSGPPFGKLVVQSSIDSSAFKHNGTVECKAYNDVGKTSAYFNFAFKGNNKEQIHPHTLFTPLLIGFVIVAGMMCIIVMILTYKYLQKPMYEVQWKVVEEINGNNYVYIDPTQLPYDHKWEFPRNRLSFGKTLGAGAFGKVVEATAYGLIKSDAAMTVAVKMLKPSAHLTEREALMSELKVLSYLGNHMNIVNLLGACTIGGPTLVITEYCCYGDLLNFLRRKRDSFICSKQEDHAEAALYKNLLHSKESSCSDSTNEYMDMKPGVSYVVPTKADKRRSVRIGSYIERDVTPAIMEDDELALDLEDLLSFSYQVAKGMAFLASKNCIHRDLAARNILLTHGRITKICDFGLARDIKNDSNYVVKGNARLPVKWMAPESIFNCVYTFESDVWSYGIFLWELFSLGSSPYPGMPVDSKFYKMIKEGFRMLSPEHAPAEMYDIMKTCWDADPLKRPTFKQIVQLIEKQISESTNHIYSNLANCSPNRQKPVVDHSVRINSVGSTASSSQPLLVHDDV", "UniProt P20273, sequence (whole entry, looked up)": "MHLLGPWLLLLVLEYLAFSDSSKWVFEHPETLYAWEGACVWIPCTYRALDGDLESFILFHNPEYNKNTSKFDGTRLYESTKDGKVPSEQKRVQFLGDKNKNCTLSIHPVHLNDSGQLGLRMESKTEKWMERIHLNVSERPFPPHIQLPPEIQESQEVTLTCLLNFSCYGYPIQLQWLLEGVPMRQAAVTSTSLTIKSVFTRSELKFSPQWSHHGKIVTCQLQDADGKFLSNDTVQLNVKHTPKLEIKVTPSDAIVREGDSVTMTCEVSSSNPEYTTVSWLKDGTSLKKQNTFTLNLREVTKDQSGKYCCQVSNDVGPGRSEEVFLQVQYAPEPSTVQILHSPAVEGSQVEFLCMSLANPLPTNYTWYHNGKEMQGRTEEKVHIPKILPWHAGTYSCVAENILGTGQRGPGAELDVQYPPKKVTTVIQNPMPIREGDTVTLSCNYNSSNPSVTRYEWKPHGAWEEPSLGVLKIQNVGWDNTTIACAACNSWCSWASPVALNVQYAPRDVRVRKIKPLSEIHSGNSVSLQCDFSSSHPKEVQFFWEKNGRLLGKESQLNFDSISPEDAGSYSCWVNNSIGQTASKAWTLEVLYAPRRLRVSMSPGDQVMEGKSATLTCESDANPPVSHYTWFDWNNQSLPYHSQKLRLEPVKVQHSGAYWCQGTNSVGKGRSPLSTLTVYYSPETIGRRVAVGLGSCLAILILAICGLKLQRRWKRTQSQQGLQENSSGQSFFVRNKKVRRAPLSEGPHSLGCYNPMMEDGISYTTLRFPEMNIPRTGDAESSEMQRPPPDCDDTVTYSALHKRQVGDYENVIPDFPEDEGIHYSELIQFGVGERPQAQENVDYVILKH", "UniProt Q9BYT3, sequence (whole entry, looked up)": "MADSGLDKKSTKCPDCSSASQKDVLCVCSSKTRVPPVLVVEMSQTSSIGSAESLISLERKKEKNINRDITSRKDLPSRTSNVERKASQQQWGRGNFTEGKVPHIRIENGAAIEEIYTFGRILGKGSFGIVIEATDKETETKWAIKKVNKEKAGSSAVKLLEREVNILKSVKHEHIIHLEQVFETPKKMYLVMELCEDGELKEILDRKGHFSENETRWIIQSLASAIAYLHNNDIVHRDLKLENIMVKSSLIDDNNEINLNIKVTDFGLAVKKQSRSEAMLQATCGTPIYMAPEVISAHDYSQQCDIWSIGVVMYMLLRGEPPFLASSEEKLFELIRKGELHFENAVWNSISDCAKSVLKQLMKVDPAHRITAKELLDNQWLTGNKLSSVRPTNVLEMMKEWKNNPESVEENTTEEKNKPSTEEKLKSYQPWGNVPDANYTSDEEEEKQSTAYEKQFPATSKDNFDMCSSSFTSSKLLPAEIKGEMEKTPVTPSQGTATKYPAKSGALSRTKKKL", "UniProt P33533, sequence (whole entry, looked up)": "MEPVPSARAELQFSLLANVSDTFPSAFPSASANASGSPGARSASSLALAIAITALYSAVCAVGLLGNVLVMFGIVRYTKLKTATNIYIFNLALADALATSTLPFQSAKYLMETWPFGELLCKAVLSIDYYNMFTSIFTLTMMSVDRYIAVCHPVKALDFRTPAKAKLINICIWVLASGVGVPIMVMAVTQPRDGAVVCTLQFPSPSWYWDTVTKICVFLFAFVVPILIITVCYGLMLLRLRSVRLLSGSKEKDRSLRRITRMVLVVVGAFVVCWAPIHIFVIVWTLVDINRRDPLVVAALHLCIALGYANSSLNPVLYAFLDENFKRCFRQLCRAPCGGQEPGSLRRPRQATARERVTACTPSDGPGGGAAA"}
{"SMILES": "O=C(N[C@@H]1c2ccccc2C[C@H]1N1CCCC1)c1ccc(-c2ccnc3[nH]ccc23)nc1", "target or system": "MYLK4 (Homo sapiens, UniProt Q86YV6)", "test": "binding, competition with immobilised ligand", "conditions": "3 µM", "measurement": "remaining binding", "result": "0.3%"}
{"SMILES": "O=C1NC2(CC2)COc2ncc(F)cc2[C@H]2COCCN2c2ccn3ncc1c3n2", "system": "Sprague-Dawley rat, male, heart", "conditions": "oral, 2.5 mg/kg/day, 4 weeks, end of treatment", "measurement": "organ-to-body weight ratio", "result": "0.361 ± 0.028%"}
{"SMILES": "O=C(O)c1ccc(-c2nc(-c3ccccc3Cl)c3sccn23)cc1", "target or system": "ACHE (Homo sapiens, UniProt P22303)", "conditions": "10 µM", "measurement": "remaining activity", "result": "98.2% and 119%"}
{"SMILES": "CN(C)[C@H]1C[C@@]23CC[C@@]4(O2)C(=CC[C@]2(C)[C@@H](c5ccc6ccncc6c5)CC[C@H]24)C=C3[C@@H](O)[C@@H]1O", "target or system": "STE20-related kinase adapter protein beta (Homo sapiens, UniProt Q9C0K7)", "test": "ATP probe labelling, inhibitor, KiNativ profiling", "conditions": "1 µM", "measurement": "inhibition", "result": "6.8%"}
{"SMILES": "C=C(c1ccccc1)[C@H](N)P(=O)(O)O", "target or system": "PAL1 (Petroselinum crispum, UniProt P24481)", "test": "L-Phe deamination, inhibitor, UV steady-state kinetics", "conditions": "100 µM, with: L-Phe 1 mM", "measurement": "reaction rate reduction", "result": "23%"}
{"SMILES": "CC(C)[C@H]1NC(=O)C[C@H]2/C=C/CCSSC[C@@H](NC1=O)C(=O)N[C@H](Cc1cccc3ccccc13)C(=O)NCC(=O)O2", "target or system": "PRKCA (Homo sapiens, UniProt P17252)", "test": "enzyme activity, inhibitor", "conditions": "10 µM", "measurement": "inhibition", "result": "1%"}
{"SMILES": "O=C(CF)N[C@H]1[C@H]([C@H](O)[C@H](O)CNC(=O)c2ccc(Oc3ccccc3)cc2)O[C@@](OCc2cccc(Cl)c2Cl)(C(=O)O)C[C@@H]1O", "target or system": "CD22 (Homo sapiens, UniProt P20273)", "test": "isothermal titration calorimetry", "conditions": "concentration not given", "measurement": "binding stoichiometry", "result": "0.9 ± 0.07"}
{"SMILES": "CS(C)(=O)=Nc1ccc(-c2ccc(-c3nc4cc(O[C@@H]5CO[C@H]6[C@@H]5OC[C@H]6O)[nH]c4cc3F)cc2)cc1", "target or system": "STK33 (Homo sapiens, UniProt Q9BYT3)", "test": "enzyme activity, inhibitor", "conditions": "10 µM", "measurement": "inhibition", "result": "5%"}
{"SMILES": "CC(=O)N[C@H](C(=O)N[C@@H](CCCNC(=N)N)C(=O)NCC(=O)N[C@@H](CO)C(=O)N[C@@H](CS)C(=O)N[C@@H](CCCNC(=N)N)C(=O)N[C@@H](CCCCN)C(=O)N[C@@H](CCCNC(=N)N)C(=O)N[C@@H](CC(N)=O)C(=O)N[C@@H](CCCNC(=N)N)C(=O)N[C@@H](CO)C(=O)N1CCC[C@H]1C(=O)N[C@@H](CCC(=O)O)C(=O)N[C@@H](CCCNC(=N)N)C(N)=O)[C@@H](C)O", "target or system": "WDR5 (Homo sapiens, UniProt P61964)", "test": "binding, competitor of LANA peptide, ITC", "conditions": "pH 7.0, 20 °C, WIN motif peptide", "measurement": "ΔH", "result": "-3.64 kcal/mol"}
{"SMILES": "O=C1NC(=O)c2c1c1cc(F)c[n+]3c1c1c2c2cc(O)ccc2[n]1[Ru-4]312([N]=C=S)[S+]3CC[S+]1CC[S+]2CC3 (centres unmarked)", "target or system": "KIT (Homo sapiens, UniProt P10721, V654A)", "test": "enzyme activity", "conditions": "100 nM, human enzyme, with: 10 µM ATP", "how to read": "baseline: untreated", "measurement": "remaining activity", "result": "20%"}
{"SMILES": "C[C@@]12C(=O)CC[C@H]1[C@@H]1CC=C3C[C@@H](O)CC[C@]3(C)[C@H]1C=C2c1cccnc1", "target or system": "7-alpha-hydroxycholest-4-en-3-one 12-alpha-hydroxylase (Homo sapiens, UniProt Q9UNU6, W281F)", "test": "inhibitor", "conditions": "80 µM, with: 7α-hydroxycholest-4-en-3-one 0.54 µM", "measurement": "remaining activity", "result": "52 ± 3.29%"}
{"SMILES": "CCOC(=O)[C@@H]1Cc2c(cc([N+](=O)[O-])cc2[N+](=O)[O-])[C@H](O)[C@]12C(=O)Nc1ccc(Br)cc12", "target or system": "STK32C (Homo sapiens, UniProt Q86UX6)", "test": "binding, competition with immobilised ligand", "conditions": "0.1 µM", "measurement": "remaining binding", "result": "67%"}
{"SMILES": "CCCC[C@H]1CNCCN1C[C@@H]1CCCN1C[C@@H](Cc1ccc2ccccc2c1)N1CCN(CCc2ccc(Cl)c(Cl)c2)[C@H]([C@@H](C)O)C1", "target or system": "Oprd1 (Rattus norvegicus, UniProt P33533)", "test": "radioligand binding", "system": "rat brain membranes", "conditions": "500 nM, pH 7.5, 25 °C, with: 2 nM [3H]DPDPE", "measurement": "remaining binding", "result": "85.8%"}
{"SMILES": "Cc1cc(Nc2nc(C[C@@]3(C(=O)O)CCN(Cc4cccc(Cl)c4F)[C@H](C)C3)cc(C)c2F)[nH]n1", "target or system": "ADRB1 (Homo sapiens, UniProt P08588)", "test": "agonist", "conditions": "10 µM", "measurement": "activation", "result": "-0.3%"}
